Measured values gathered from unrelated publications.
Several values in a cell are separate wells, animals, samples, runs or records. Numbers after ± are the reported error.

| Molecule | target or system | assay | system | setting | scale | measurement | result |
| --- | --- | --- | --- | --- | --- | --- | --- |
| O=C(O)C(=O)CBr | Leishmania infantum | infected macrophages | U-937 macrophages | 48 h | – | IC50 | > 75 µM |
| CC(C)c1cc2c(cc1O)[C@@]1(C)CCCC(C)(C)[C@@H]1CC2 | Leishmania amazonensis | parasite growth | mouse Peritoneal macrophage | 72 h, intracellular, amastigote | – | IC50 | 4.4 mg/L |
| Cc1ccc(Cn2cc(C=O)c3cc([N+](=O)[O-])ccc32)cc1 | Leishmania major | parasite growth, resazurin | THP-1 | 24 h, intracellular, amastigote | – | IC50 | > 10 µM |
| CO/C(=C/C(N)=O)[C@H](C)[C@H](/C=C/c1csc(-c2csc([C@@H](C)/C=C/C=C/C(C)C)n2)n1)OC | Plasmodium yoelii | oxygen consumption | 17XL | – | – | IC50 | 0.2 µM |
| OCC1CC(n2cnc3c(SCc4ccc(OC(F)(F)F)cc4)ncnc32)C(O)C1O (stereo not shown) | Toxoplasma gondii | parasite growth, radiolabelled uracil incorporation | RH wild type, tissue culture | – | – | IC50 | 21 ± 1.7 µM |
| CSCC[C@H](NC(=O)[C@H](CCCCN)NC(=O)[C@H](CCCCN)NC(=O)[C@@H](NC(=O)[C@H](CCCCN)NC(=O)[C@H](CC(=O)O)NC(=O)[C@H](Cc1c[nH]c2ccccc12)NC(=O)[C@H](CC(C)C)NC(=O)[C@H](CCC(=O)O)NC(=O)[C@H](CCCCN)NC(=O)[C@@H](NC(=O)[C@@H](N)Cc1ccccc1)C(C)C)C(C)C)C(=O)NCC(=O)N[C@@H](CO)C(=O)N[C@@H](C)C(=O)N[C@@H](C)C(=O)N[C@@H](Cc1c[nH]c2ccccc12)C(=O)N[C@@H](CO)C(=O)N[C@@H](C)C(=O)N[C@@H](C)C(=O)N[C@@H](CCCCN)C(=O)NCC(=O)N[C@@H](C)C(=O)N[C@@H](Cc1ccccc1)C(=O)N[C@@H](C)C(=O)O | Haemonchus contortus | larval development | Kirby isolate | 6 days, 26 °C | – | IC50 | 23 to 38 µM and 23.2 µM |
| O=Cc1cn(Cc2cccc(Cl)c2)c2ccc([N+](=O)[O-])cc12 | Leishmania donovani | parasite growth, resazurin | THP-1 | 72 h, intracellular, amastigote | – | IC50 | > 10 µM |
| CC(=O)Nc1ccc2ccn(-c3cc(NCC4COC4)n4ncc(C#N)c4n3)c2c1 | murine hepatitis virus | viral replication, nanoluciferase reporter | DBT | 10 h | – | IC50 | 3.98 µM |
| O=C1C=C2C=C[C@@H]3C[C@@]2(O1)[C@H]1CCCCN31 | human papillomavirus 16 | pseudovirus infection, inhibitor | 293FT | pseudovirus | – | IC50 | 9 µM |
| CC1=CC=CC[C@H](C)NC(=O)C=CC=CC=C[C@H](C)[C@@H](O)[C@H](O)[C@@H](O)C[C@@H](O)/C=C\C=CC(C)=C1 | Trypanosoma brucei brucei | parasite growth | – | – | – | IC50 | < 10 µM |
| C/C=C1/C[N+]2(C)CC[C@@]34C[C@H]5[C@@H]6C[C@H]7c8c(c9ccccc9n8C)C[C@@H]([C@@H]6CO[C@@]5(C)O[C@@]35[C@@H]2C[C@@H]1[C@@H](C(=O)OC)N5c1ccccc14)N7C (stereo partly shown) | Leishmania mexicana | parasite growth, flow cytometry | – | promastigote | – | IC50 | 78 µM |
| C=CC(C)(C)c1cc2cc3c(cc2oc1=O)OC(C(C)(C)OC(C)=O)C3 (stereo not shown) | human rhinovirus 2 | cytopathic effect | HeLa | 72 h | – | IC50 | toxic |
| CCCC[C@H]1C(=O)O[C@H](C)[C@H](NC(=O)c2cccc(NC=O)c2O)C(=O)O[C@@H](C)[C@@H]1OC(=O)CC(C)C | Wickerhamomyces anomalus | O2 uptake, inhibitor | mitochondria | added: glycerol 3-phosphate 20 mM | – | IC50 | 0.026 µM |
| CC(C)C[C@H](NC(=O)[C@H](Cc1ccccc1)NC(=O)c1cnccn1)B(O)O | Babesia divergens | parasite growth | bovine erythrocyte culture | 48 h, starting parasitemia 2% | – | IC50 | 0.047 ± 0.009 µM |
| N#CSCCOc1cccc(Oc2cccc(Cl)c2)c1 | Toxoplasma gondii | – | tachyzoites | – | – | IC50 | > 10 µM |
| CN[C@@](C)(C[18F])C(=O)O | DU-145 tumour model | – | host not given, tumour | 30 min, tumour-bearing | – | tracer uptake | 5.1 %ID/g |

| Molecule | target or system | assay | system | setting | scale | measurement | result |
| --- | --- | --- | --- | --- | --- | --- | --- |
| CS(=O)(=O)c1ccc(CSc2ncnc3c2ncn3C2CC(CO)C(O)C2O)cc1 (stereo not shown) | Toxoplasma gondii | parasite growth, radiolabelled uracil incorporation | RH wild type, tissue culture | – | – | IC50 | 14.6 ± 1.1 µM |
| O=Cc1cn(Cc2ccccc2)c2ccc([N+](=O)[O-])cc12 | Leishmania major | parasite growth, resazurin | – | promastigote | – | IC50 | > 100 µM |
| COCC(=O)[C@H]1C(C)(C)CCC[C@]1(C)C1=C(O)C(=O)C(C(C)C)=CC1=O | Leishmania amazonensis | parasite growth | mouse Peritoneal macrophage | 72 h, intracellular, amastigote | – | IC50 | 0.52 mg/L |
| C[C@@H]1N[C@H](CCCCCCCCCCC2=C[C@@H](CCCCCCCCCC[C@@H]3CC[C@@H](O)[C@H](C)N3)[C@@H]3CCCN3C2)CC[C@H]1O | Leishmania donovani | parasite growth | THP-1 | intracellular, amastigote | – | IC50 | 1.08 mg/L |
| ciclosporin | hepatitis B virus | viral infection, ELISA, refers to: HBsAg secretion | HepaRG | 2 h pretreatment, 12 days | – | IC50 | 1.17 ± 0.22 µM |
| CC(=O)Nc1ccc2ccn(-c3cc(NC45CC(C4)C5)n4ncc(C#N)c4n3)c2c1 | murine hepatitis virus | viral replication, nanoluciferase reporter | DBT | 10 h | – | IC50 | 6.31 µM |
| C/C(=C\Cc1c(O)c(Cl)c(C)c(C=O)c1O)CC/C=C(\C)[C@@H]1CC(=O)C(C)(C)O1 | Wickerhamomyces anomalus | O2 uptake, inhibitor | mitochondria | added: malate and pyruvate 15 mM | – | IC50 | 230 µM |
| O=Cc1cn(Cc2ccc(F)cc2)c2ccc([N+](=O)[O-])cc12 | Trypanosoma brucei rhodesiense | – | trypomastigotes, IL1501 | – | – | IC50 | 83.8 ± 2.62 µM |
| CC(=O)Nc1ccc2ccn(-c3cc(Sc4ccccc4)n4ncc(C#N)c4n3)c2c1 | murine hepatitis virus | viral replication, nanoluciferase reporter | DBT | 10 h | – | IC50 | 3.16 µM |
| c1ccc(CN2CCN3CCCN(CC2)CCN(Cc2ccccc2)CC3)cc1 | Leishmania donovani | parasite growth, resazurin | – | 72 h, promastigote | – | IC50 | 15.6 µM |
| CO/C(=C/C(N)=O)[C@H](C)[C@H](/C=C/c1csc(-c2csc([C@@H](C)/C=C/C=C/C(C)C)n2)n1)OC | Wickerhamomyces anomalus | O2 uptake, inhibitor | mitochondria | added: malate and pyruvate 15 mM | – | IC50 | 0.085 µM |
| CSCC[C@H](NC(=O)[C@H](Cc1ccccc1)NC(=O)[C@H](Cc1c[nH]c2ccccc12)NC(=O)[C@H](CCC(=O)O)NC(=O)[C@H](CCCNC(=N)N)NC(=O)[C@H](Cc1c[nH]cn1)NC(=O)[C@@H](NC(=O)[C@H](CC(C)C)NC(=O)[C@H](Cc1ccccc1)NC(=O)[C@@H](N)[C@@H](C)O)C(C)C)C(=O)N[C@@H](CC(=O)O)C(=O)N[C@@H](CC(C)C)C(=O)N[C@@H](CC(N)=O)C(=O)N[C@@H](CC(C)C)C(=O)N1CCC[C@H]1C(=O)N[C@@H](Cc1c[nH]c2ccccc12)C(=O)N[C@@H](CO)C(=O)N[C@@H](CO)C(=O)N[C@@H](C)C(=O)NCC(=O)N[C@@H](CO)C(=O)N[C@H](C(=O)N[C@H](C(=O)N[C@@H](Cc1c[nH]c2ccccc12)C(=O)N[C@@H](CCCNC(=N)N)C(=O)O)C(C)C)[C@@H](C)O | West Nile virus | viral replication, plaque reduction | LLC-MK2, Egypt 101 | – | – | IC50 | ~10 µM |
| CO[C@@H]1[C@H](OP(=O)(OC[C@H]2O[C@@H](n3cnc4c(N)ncnc43)C[C@@H]2O)SCOC(=O)OC(C)C)[C@@H](CO)O[C@H]1n1ccc(=O)[nH]c1=O (stereo partly shown) | hepatitis C virus | – | patient-derived genotype 1 or 3 | – | baseline: treatment-naive over IFN-relapsed | IC50 | no effect |
| CCC(=O)Nc1cc(Nc2cc(NC3CC3)n3ncc(C#N)c3n2)ccc1N1CCCC(N)C1 (stereo not shown) | murine hepatitis virus | viral replication, nanoluciferase reporter | DBT | 10 h | – | IC50 | 0.316 µM |
| CC[C@H](C)[C@H](NC(=O)[C@H](CC(C)C)NC(=O)[C@H](Cc1c[nH]cn1)NC(=O)[C@H](Cc1c[nH]cn1)NC(=O)[C@@H](NC(=O)[C@H](Cc1ccccc1)NC(=O)[C@H](Cc1c[nH]cn1)NC(=O)[C@H](Cc1c[nH]c2ccccc12)NC(=O)[C@@H](NC(=O)[C@H](Cc1c[nH]cn1)NC(=O)[C@H](Cc1c[nH]cn1)NC(=O)[C@H](Cc1c[nH]c2ccccc12)NC(=O)[C@@H](N)CC(C)C)[C@@H](C)CC)C(C)C)C(N)=O | Herpes simplex virus 1 | viral attachment, plaque reduction | Vero, F | 1 h, 4 °C | – | IC50 | 0.67 mg/L |

Excerpt of the above:
| Molecule | target or system | assay | system | setting | scale | measurement | result |
| --- | --- | --- | --- | --- | --- | --- | --- |
| C/C=C1/C[N+]2(C)CC[C@@]34C[C@H]5[C@@H]6C[C@H]7c8c(c9ccccc9n8C)C[C@@H]([C@@H]6CO[C@@]5(C)O[C@@]35[C@@H]2C[C@@H]1[C@@H](C(=O)OC)N5c1ccccc14)N7C (stereo partly shown) | Leishmania mexicana | parasite growth, flow cytometry | – | promastigote | – | IC50 | 78 µM |
| C=CC(C)(C)c1cc2cc3c(cc2oc1=O)OC(C(C)(C)OC(C)=O)C3 (stereo not shown) | human rhinovirus 2 | cytopathic effect | HeLa | 72 h | – | IC50 | toxic |
| CCCC[C@H]1C(=O)O[C@H](C)[C@H](NC(=O)c2cccc(NC=O)c2O)C(=O)O[C@@H](C)[C@@H]1OC(=O)CC(C)C | Wickerhamomyces anomalus | O2 uptake, inhibitor | mitochondria | added: glycerol 3-phosphate 20 mM | – | IC50 | 0.026 µM |
